Measured values of several laboratories.
Each numbered part is a random draw from the data of one study; scales do not carry over between parts. Several values in a cell are separate wells, animals, samples, runs or records.
Sequence of UniProt P00519 (whole entry, unmodified, looked up): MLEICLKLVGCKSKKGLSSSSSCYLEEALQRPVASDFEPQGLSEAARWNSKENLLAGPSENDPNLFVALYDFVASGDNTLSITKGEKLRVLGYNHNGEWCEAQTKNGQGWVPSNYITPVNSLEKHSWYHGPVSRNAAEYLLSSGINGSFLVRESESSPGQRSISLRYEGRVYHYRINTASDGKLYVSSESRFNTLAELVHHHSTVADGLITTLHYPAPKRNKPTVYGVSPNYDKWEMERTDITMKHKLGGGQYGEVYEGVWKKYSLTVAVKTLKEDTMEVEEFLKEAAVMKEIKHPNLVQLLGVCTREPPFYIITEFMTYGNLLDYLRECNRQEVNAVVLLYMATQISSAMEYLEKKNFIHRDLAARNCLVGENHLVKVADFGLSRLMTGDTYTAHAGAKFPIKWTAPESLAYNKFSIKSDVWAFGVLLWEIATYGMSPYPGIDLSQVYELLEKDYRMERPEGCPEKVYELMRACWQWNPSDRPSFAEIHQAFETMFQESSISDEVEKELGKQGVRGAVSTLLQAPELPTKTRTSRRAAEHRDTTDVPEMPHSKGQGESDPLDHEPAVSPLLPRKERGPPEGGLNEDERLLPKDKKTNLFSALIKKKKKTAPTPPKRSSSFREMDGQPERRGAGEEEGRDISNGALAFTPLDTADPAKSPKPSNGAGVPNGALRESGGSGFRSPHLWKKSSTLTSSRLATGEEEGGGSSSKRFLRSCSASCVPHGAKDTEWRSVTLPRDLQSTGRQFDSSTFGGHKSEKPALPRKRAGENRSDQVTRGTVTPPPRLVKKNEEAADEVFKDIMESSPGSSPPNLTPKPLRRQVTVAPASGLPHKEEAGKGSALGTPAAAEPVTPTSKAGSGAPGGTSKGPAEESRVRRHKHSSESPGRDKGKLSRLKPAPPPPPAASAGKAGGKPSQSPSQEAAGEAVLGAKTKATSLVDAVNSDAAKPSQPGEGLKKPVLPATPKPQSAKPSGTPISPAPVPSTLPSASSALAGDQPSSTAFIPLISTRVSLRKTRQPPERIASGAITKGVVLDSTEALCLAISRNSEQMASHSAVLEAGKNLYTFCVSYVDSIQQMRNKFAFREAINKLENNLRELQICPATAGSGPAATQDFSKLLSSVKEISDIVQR
Sequence of UniProt P54646 (whole entry, looked up): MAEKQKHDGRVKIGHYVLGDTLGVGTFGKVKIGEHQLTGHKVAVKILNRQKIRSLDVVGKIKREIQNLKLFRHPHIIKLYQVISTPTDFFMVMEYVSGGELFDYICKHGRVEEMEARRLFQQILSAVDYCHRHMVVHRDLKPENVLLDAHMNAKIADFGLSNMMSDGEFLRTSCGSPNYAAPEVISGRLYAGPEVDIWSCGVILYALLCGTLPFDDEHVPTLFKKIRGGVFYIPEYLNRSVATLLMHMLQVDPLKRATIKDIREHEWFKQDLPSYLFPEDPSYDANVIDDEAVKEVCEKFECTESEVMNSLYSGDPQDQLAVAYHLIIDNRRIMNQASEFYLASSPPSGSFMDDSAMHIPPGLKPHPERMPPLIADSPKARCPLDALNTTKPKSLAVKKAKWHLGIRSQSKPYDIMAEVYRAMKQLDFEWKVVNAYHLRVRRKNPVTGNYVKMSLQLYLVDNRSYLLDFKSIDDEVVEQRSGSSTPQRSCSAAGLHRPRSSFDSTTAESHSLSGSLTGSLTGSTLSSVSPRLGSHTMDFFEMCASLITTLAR
Sequence of UniProt Q13177 (whole entry, looked up): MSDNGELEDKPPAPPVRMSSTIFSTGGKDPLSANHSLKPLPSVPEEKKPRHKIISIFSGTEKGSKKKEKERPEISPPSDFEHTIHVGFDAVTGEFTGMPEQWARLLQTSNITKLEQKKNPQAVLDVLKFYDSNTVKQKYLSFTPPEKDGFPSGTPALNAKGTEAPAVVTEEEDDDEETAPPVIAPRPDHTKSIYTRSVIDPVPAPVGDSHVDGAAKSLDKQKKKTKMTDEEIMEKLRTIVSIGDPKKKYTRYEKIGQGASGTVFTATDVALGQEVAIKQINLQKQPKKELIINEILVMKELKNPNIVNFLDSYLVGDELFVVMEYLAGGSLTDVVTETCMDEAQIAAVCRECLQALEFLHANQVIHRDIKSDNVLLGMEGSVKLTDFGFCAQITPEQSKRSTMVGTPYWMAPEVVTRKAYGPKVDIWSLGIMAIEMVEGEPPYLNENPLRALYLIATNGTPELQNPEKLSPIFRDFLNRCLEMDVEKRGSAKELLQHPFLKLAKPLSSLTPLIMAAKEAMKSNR

Block 1
Target: Membrane-associated tyrosine- and threonine-specific cdc2-inhibitory kinase (PKMYT1, Homo sapiens, UniProt Q99640)
Sequence of UniProt Q99640 (whole entry, looked up): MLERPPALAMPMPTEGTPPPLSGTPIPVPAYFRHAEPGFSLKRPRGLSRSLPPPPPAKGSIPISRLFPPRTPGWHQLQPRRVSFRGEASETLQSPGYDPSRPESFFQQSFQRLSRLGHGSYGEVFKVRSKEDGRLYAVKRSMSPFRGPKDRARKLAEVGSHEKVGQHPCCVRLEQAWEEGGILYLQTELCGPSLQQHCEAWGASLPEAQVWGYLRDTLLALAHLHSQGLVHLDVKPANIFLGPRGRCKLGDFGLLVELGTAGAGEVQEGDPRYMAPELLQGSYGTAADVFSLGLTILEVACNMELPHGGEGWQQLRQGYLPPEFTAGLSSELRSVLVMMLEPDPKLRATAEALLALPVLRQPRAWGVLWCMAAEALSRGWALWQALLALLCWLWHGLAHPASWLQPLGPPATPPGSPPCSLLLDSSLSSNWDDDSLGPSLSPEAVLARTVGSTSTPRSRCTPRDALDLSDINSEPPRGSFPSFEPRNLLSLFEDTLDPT
Effect on: binding
Technique: HTRF
Tested at: 111.11 nM
Structure (SMILES)	inhibition
Cc1ccc(O)c(C)c1-c1cnc2[nH]c(-c3cnc(N4CCC5(CC4)CC(N4CCN(c6ccc7c(c6)C(=O)N(C6CCC(=O)NC6=O)C7=O)CC4)CO5)nc3)cc2c1C#N (mixture of isomers)	98.7% and 98.9%
Cc1ccc(O)c(C)c1-c1cnc2[nH]c(-c3cnc(N4CCC(CN5CCN(c6c(F)cc(NC7CCC(=O)NC7=O)cc6F)CC5)CC4)nc3)cc2c1C#N (racemic)	84.3% and 83.6%
Cc1ncc(-c2cc3c(N)c(-c4c(C)ccc(O)c4C)cnc3[nH]2)cn1	67.1% and 66.4%
Cc1ccc(O)c(C)c1-c1cnc2[nH]c(-c3cnc(N4CCC5(CC4)CC(N4CCN(c6cc7c(cc6F)c(N6CCC(=O)NC6=O)nn7C)CC4)CO5)nc3)cc2c1C#N (racemic)	99.1% and 97.3%
Cc1ccc(O)c(C)c1-c1cnc2[nH]c(-c3cnc(N4CCC(CCN5CCN(c6cc7c(cc6F)c(N6CCC(=O)NC6=O)nn7C)CC5)CC4)nc3)cc2c1C#N	100% and 99.3%
Cc1ccc(O)c(C)c1-c1cnc2[nH]c(-c3cnc(N4CCC(CN5CCN(c6ccc(NC7CCC(=O)NC7=O)c(F)c6)CC5)CC4)nc3)cc2c1C#N (racemic)	99.1% and 99.7%

Block 2
Structure (SMILES): Cn1cc(-c2cccc(CN3CCC4(CC3)COc3c4ccc4c3CN([C@H]3CCC(=O)NC3=O)C4=O)c2)cn1
Mode: degrader
CRBN/Zinc finger protein Helios: CRBN/Zinc finger protein Helios (Homo sapiens, UniProt Q96SW2+Q9UKS7)
Sequence of UniProt Q96SW2 (whole entry, looked up): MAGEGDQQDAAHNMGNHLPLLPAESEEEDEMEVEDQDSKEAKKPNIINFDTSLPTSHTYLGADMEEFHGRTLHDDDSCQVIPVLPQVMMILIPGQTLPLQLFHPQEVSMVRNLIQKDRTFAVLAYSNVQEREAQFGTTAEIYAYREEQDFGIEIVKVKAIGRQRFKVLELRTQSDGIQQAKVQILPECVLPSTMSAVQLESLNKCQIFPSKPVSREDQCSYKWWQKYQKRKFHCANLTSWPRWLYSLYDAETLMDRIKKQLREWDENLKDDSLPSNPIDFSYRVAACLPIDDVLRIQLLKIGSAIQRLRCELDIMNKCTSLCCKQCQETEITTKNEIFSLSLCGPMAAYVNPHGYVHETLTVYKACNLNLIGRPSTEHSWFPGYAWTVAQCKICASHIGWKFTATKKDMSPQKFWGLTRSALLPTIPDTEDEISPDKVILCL
Sequence of UniProt Q9UKS7 (whole entry, looked up): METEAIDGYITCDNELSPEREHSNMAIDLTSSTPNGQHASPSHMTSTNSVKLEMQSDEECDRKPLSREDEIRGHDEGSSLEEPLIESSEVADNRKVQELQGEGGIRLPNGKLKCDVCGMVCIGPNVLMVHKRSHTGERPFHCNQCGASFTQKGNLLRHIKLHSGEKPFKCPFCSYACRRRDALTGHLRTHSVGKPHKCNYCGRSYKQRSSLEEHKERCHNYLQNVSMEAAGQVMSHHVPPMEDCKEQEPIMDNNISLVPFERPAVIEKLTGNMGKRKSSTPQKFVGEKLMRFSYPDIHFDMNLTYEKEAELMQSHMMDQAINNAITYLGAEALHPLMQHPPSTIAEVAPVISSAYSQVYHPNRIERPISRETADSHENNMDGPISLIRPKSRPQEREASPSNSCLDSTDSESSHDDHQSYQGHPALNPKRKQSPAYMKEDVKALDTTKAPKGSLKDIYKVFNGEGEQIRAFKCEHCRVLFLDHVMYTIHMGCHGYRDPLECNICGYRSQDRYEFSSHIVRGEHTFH
Ikzf2/Crbn I391V: Ikzf2/Crbn (Mus musculus, UniProt P81183+Q8C7D2, I391V)
Sequence of UniProt Q8C7D2 (whole entry, unmodified, looked up): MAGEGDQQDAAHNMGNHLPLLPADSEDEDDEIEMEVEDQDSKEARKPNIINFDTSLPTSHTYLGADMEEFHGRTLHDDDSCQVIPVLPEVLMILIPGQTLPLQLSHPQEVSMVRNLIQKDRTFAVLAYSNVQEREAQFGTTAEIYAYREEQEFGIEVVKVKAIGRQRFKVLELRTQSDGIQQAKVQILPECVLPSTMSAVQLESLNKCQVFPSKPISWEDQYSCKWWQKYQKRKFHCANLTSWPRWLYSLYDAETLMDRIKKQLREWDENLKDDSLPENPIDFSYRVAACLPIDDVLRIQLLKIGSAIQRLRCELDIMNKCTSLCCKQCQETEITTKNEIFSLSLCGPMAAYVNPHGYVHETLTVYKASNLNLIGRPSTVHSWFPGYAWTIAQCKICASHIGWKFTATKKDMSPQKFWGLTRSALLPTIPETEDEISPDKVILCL
Sequence of UniProt P81183 (whole entry, unmodified, looked up): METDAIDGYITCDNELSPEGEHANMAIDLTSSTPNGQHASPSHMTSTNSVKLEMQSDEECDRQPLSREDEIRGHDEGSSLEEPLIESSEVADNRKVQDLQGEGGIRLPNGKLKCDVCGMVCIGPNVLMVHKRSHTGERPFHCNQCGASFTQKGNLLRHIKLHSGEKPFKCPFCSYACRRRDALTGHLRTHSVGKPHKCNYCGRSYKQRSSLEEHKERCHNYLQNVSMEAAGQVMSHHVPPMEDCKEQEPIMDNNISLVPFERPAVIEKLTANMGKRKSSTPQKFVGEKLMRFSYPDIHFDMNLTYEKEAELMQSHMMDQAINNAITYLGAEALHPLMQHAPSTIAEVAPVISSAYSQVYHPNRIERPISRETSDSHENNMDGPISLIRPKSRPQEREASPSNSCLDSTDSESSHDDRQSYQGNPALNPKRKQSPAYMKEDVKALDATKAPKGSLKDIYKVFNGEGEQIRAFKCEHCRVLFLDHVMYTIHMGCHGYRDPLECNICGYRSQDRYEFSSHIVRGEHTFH
target	test	system	setting	protein remaining
CRBN/Zinc finger protein Helios	HiBiT	HEK293	4.115 nM, 6 h	24.8% and 22.7%
CRBN/Zinc finger protein Helios	HiBiT	HEK293	4.115 nM, 1 h	65% and 55.6%
Ikzf2/Crbn I391V		Crbn I391V mouse, thymus	100 mg/kg, 24 h	40% and 16% and 49% and 23%
CRBN/Zinc finger protein Helios	HiBiT	HEK293	4.115 nM, 3 h	28.1% and 33.9%
Ikzf2/Crbn I391V		Crbn I391V mouse, thymus	10 mg/kg, 24 h	72% and 52% and 60%
CRBN/Zinc finger protein Helios	HiBiT	HEK293	0.05081 nM, 1 h	95.5% and 88.7%
Ikzf2/Crbn I391V		Crbn I391V mouse, spleen	100 mg/kg, 6 h	12% and 21% and 1% and 8%
CRBN/Zinc finger protein Helios	HiBiT	HEK293	0.01694 nM	105% and 103%
CRBN/Zinc finger protein Helios	HiBiT	HEK293	0.01694 nM, 3 h	97.5% and 97%
CRBN/Zinc finger protein Helios	HiBiT	HEK293	12.35 nM, 6 h	19.1% and 22.3%
CRBN/Zinc finger protein Helios	HiBiT	HEK293	37.04 nM	13.6% and 10.2%

Block 3
SMILES: O=C(Nc1ccccc1)Nc1cccc(Oc2ccc3nccn3n2)c1
Tested at: 1 µM
target	test	remaining binding [%]
Tyrosine-protein kinase ABL1 (ABL1, Homo sapiens, UniProt P00519, Y253F)	binding	100
Serine/threonine-protein kinase PAK 2 (PAK2, Homo sapiens, UniProt Q13177)	binding	100
Mast/stem cell growth factor receptor Kit (KIT, Homo sapiens, UniProt P10721, A829P)	binding	88
Tyrosine-protein kinase ABL1 (ABL1, Homo sapiens, UniProt P00519, M351T)	binding	100
Epidermal growth factor receptor (EGFR, Homo sapiens, UniProt P00533, L861Q)	binding	69
LIM domain kinase 1 (LIMK1, Homo sapiens, UniProt P53667)	cell-free binding	100
5'-AMP-activated protein kinase catalytic subunit alpha-2 (PRKAA2, Homo sapiens, UniProt P54646)	binding	100
Serine/threonine-protein kinase mTOR (MTOR, Homo sapiens, UniProt P42345)	binding	79

Other studies, line by line
SMILES	organism	test	system	setting	quantity	result
FC(F)(F)c1ccc(C2=NOC3(NC(c4ccccc4)=NO3)N2c2ccccc2)cc1 (centres unmarked)	Plasmodium falciparum	SYBR Gold	SB1-A6	concentration not given, 72 h, highest tested concentration	growth inhibition	50%

For quick reference, copied from above (block 3):
target	test	remaining binding [%]
Tyrosine-protein kinase ABL1 (ABL1, Homo sapiens, UniProt P00519, Y253F)	binding	100
Serine/threonine-protein kinase PAK 2 (PAK2, Homo sapiens, UniProt Q13177)	binding	100
